Experimental data collected from several papers.
Numbered parts are unrelated; each lists some results of a single study. Substitutions count along the parent as printed.

Sample 1 — method: RNA Bind-n-Seq; form: RNA; matrix: in vitro; concentration: 200 nM; setting: whole 134-nt RNA, ends assumed; added: 150 mM KCl; baseline: input library; reading: higher = stronger binding
Target: Fragile X messenger ribonucleoprotein 1, C-terminal low-complexity region (Fmr1, Mus musculus, UniProt P35922)
Constant ends, left off below: GGGAGUUCUACAGUCCGACGAUC … UGGAAUUCUCGGGUGUCAAGG
With `UUGGCUACAAUGCAGAGACACAGAAACUACUAUGCAAGAAUGGGGAAACGCUGCUAGGAGCCGUGAACUUCUUUGUCUCUAGCAUCAACA` the log2 enrichment was -0.657.
`GAGCUGGAAGCUAUCAAAGCUCGAGUCAGGGAGAUGGAGGAAGAAGCUGAGAAGCUAAAGGAGCUACAGAACGAGGUAGAGAAGCAGAUG` gave a log2 enrichment of -0.314.
For `AAGUCCUGUGCUACACAUCGUAUGUACCGAAUCGGGGUGGGGAAAAAGGGGUGGGGAAAGUAUUAUGUUACGCCGUUCGGAUCUGCACUU`, the log2 enrichment was 0.946.
`UCCUGUGCUACACAUCGUAUGUACCGAAUCGGGCCCCCCGGGCCCCCCGGGCCCCCCGGGAAAGUAUUAUGUUACGCCGUUCGGAUCUGC` has a log2 enrichment of -0.317.
`UGGCCCUGGUGGCAUGCGGGGAUGAAGAGGUGGCCUCAUGGAUCGUGGUGGUCCCGGUGGAAUGUUCAGAGGUGGCCGUGGUGGAGACAG` has a log2 enrichment of 0.185.
For `UCAAGUCCUGUGCUACACAUCGUAUGUACCGAAUCGGUUGGGGUUGGGGUUGGGAAAGUAUUAUGUUACGCCGUUCGGAUCUGCACUUCC`, the log2 enrichment was 1.13.
With `ACCAUGCAGGUGGGCAUCUUAAAGAAGUGGGGCAAGGGGGGGAUAGGGAGGGGGGUAACACUUUGGGAACAGGUGGUCCCAGGUCGUUUC` the log2 enrichment was 1.02.
`UUCUCCUGCCCCGAAGCUCGCUGUGCGUGUGCGUGUGUGUGUCCCUCCGCCAACGCCGCCACCUCAGCCCGGCAAAUGAACUCCGUCCGA` has a log2 enrichment of 0.442.
With `AGUCCUGUGCUACACAUCGUAUGUACCGAAUCGGAAAAAAAGGUUUUUGGAAAAAGGAAAGUAUUAUGUUACGCCGUUCGGAUCUGCACU` the log2 enrichment was -1.41.
`AGUCCUGUGCUACACAUCGUAUGUACCGAAUCGGCCCCCGGGGCCCCCGGGCCCCCGGAAAGUAUUAUGUUACGCCGUUCGGAUCUGCAC` gave a log2 enrichment of -0.417.
For `CCUGUGCUACACAUCGUAUGUACCGAAUCGGGGAAAAAGGGGAAAGGGGAAAAAAAGGGGAAAGUAUUAUGUUACGCCGUUCGGAUCUGC`, the log2 enrichment was 0.0297.
`GUCCUGUGCUACACAUCGUAUGUACCGAAUCGGGGUGGGGUUUUUUUGGGGAAAGGGGAAAGUAUUAUGUUACGCCGUUCGGAUCUGCAC` gave a log2 enrichment of 0.619.
For `AAGUCCUGUGCUACACAUCGUAUGUACCGAAUCGGUUUUGGGGUUUUGGGGUUUUGGAAAGUAUUAUGUUACGCCGUUCGGAUCUGCACU`, the log2 enrichment was -0.171.
For `UGGCCCUGGUGGCACGCGGGGAGGAAGAGGUGGCCUCAUGGAUCGUGGUGGUCCCGGUGGAAUGUUCAGAGGUGGCCGUGGUGGAGACAG`, the log2 enrichment was 0.402.

Sample 2 — target: CCNE1, cyclin fold, Cln2 fusion (human); method: yeast growth competition, sequencing; matrix: yeast; setting: weak parent motif; baseline: not given; reading: higher = stronger binding
Starting sequence: EXO1 docking peptide (human); KPECGRVQRAIFQ
`G5A`: “normalised enrichment score” -0.201.
Under “normalised enrichment score”, `Q8A` is recorded as 0.386.
`C4A` — result for “normalised enrichment score”: 0.157.
Under “normalised enrichment score”, `R6A` is recorded as 0.0228.
`F12A` — result for “normalised enrichment score”: 0.0918.
Under “normalised enrichment score”, `R9A` is recorded as -0.0326.

Sample 3 — method: DHFR PCA, deep sequencing; matrix: yeast; added: (+)-ABA 1.4 µM; baseline: wild-type fitted maximum; reading: higher = stronger binding
Target: ABI1, truncated, D143A, DHFR fusion (Arabidopsis thaliana)
Setting: methotrexate growth selection, single substitutions
Starting sequence: PYL1, truncated, DHFR fusion (Arabidopsis thaliana); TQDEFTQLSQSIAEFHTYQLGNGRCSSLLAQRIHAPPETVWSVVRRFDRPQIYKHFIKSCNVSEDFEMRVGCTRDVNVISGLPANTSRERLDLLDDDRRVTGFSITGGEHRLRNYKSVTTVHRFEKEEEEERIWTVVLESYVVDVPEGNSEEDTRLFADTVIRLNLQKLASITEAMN
`E38A`: “relative binding score” 28.2%.
`G21R` — result for “relative binding score”: 49.2%.
`A30T`: “relative binding score” 53.3%.
`Y141E` — result for “relative binding score”: -8.14%.
`L166W` — result for “relative binding score”: 2.09%.
`G102E` — result for “relative binding score”: -5.61%.
For `V121N`, “relative binding score” read -12.4%.
Under “relative binding score”, `V40H` is recorded as -18.9%.
`Y18L` — result for “relative binding score”: 0.543%.
Under “relative binding score”, `I52H` is recorded as 17.4%.

Mixed results
With `PhoQ, residues 284 288 289 292 302 303 TNSAEL` the fold induction was 20.7 (PhoP, residues 12 14 15 18 19 MHTVL (Escherichia coli, UniProt P23836); Sort-seq, refers to: YFP reporter; E. coli; PhoQ-PhoP variant library, added: 10 µM Mg2+; baseline: high Mg2+ state, higher = stronger signaling).

For quick reference, copied from above (sample 2):
`C4A` — result for “normalised enrichment score”: 0.157.
`G5A`: “normalised enrichment score” -0.201.
